Experimental data pooled from the literature.
“And” joins repeats or separate records; there may be more than shown. Numbers after ± are the reported error.
ESR2: Estrogen receptor beta (ESR2, Homo sapiens, UniProt Q92731)
Sequence of UniProt Q92731 (whole entry, looked up): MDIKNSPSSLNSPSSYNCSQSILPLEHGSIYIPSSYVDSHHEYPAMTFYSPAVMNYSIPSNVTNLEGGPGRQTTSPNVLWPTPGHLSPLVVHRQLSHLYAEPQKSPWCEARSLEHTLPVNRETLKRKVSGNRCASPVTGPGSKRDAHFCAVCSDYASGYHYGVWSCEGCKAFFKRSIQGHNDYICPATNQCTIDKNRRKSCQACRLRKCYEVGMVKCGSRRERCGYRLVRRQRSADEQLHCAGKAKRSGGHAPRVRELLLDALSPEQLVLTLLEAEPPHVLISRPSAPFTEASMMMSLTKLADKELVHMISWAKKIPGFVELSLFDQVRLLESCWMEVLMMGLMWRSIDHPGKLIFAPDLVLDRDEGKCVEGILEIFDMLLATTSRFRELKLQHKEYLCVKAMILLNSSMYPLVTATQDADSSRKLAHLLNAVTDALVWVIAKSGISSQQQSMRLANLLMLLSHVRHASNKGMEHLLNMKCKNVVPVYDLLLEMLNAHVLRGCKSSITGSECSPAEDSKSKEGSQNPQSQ
BACE1: Beta-secretase 1 (BACE1, Homo sapiens, UniProt P56817)
Sequence of UniProt P56817 (whole entry, looked up): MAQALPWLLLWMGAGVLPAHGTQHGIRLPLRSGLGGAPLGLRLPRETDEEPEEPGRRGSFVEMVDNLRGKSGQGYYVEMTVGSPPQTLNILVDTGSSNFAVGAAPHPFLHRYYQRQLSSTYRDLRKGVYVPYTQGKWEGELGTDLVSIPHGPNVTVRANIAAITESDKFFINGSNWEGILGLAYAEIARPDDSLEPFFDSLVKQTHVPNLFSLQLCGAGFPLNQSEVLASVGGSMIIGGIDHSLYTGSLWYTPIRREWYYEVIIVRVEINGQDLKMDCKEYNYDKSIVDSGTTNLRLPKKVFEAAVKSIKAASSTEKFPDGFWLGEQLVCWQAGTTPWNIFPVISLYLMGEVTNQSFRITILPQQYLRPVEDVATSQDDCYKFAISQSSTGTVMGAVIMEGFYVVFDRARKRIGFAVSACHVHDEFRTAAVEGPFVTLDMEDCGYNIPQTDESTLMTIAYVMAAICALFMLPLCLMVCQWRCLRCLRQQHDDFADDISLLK
Ephx2: Bifunctional epoxide hydrolase 2 (Ephx2, Mus musculus, UniProt P34914)
Sequence of UniProt P34914 (whole entry, looked up): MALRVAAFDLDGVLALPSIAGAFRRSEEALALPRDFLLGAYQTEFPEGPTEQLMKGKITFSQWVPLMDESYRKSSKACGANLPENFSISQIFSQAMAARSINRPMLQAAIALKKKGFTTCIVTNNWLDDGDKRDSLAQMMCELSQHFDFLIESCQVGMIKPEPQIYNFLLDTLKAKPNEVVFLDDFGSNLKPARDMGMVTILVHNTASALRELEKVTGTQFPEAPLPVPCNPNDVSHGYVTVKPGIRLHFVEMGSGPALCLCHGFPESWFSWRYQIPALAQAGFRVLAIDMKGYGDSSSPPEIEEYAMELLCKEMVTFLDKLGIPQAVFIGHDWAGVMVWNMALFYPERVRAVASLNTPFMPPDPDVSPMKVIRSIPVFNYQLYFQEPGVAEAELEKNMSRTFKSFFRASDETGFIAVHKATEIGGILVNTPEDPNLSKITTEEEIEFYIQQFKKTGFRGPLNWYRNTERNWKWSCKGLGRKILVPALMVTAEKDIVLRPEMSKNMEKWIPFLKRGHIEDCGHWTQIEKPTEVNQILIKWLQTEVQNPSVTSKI
Kir3.1/Kir3.2: Kir3.1/Kir3.2 (Homo sapiens, UniProt P48051+P48549)
Sequence of UniProt P48549 (whole entry, looked up): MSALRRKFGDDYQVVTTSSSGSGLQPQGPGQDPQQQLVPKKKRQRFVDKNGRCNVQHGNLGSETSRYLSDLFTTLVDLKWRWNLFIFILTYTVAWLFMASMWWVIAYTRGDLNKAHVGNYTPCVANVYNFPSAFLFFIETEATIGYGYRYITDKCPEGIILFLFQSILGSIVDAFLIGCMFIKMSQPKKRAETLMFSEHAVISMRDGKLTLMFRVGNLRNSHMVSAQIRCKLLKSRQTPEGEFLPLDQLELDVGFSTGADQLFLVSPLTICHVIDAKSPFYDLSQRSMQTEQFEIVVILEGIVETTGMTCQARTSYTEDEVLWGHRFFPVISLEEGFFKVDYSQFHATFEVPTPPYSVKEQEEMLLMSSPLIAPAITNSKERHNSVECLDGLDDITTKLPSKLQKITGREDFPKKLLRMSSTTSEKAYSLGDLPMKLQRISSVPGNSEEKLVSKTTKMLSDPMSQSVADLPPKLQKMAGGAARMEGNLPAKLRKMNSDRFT
Sequence of UniProt P48051 (whole entry, looked up): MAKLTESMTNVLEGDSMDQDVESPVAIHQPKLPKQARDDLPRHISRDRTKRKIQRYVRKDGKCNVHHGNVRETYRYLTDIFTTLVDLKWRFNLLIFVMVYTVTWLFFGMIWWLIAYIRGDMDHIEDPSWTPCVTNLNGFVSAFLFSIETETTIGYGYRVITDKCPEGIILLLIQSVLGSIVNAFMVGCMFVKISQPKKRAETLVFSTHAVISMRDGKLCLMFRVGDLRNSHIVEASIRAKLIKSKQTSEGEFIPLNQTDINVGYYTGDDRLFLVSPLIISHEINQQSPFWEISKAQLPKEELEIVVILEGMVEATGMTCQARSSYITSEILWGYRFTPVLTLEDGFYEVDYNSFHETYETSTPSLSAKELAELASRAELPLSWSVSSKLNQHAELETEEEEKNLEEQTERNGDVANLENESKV
HDAC1: Histone deacetylase 1 (HDAC1, Homo sapiens, UniProt Q13547)
Sequence of UniProt Q13547 (whole entry, looked up): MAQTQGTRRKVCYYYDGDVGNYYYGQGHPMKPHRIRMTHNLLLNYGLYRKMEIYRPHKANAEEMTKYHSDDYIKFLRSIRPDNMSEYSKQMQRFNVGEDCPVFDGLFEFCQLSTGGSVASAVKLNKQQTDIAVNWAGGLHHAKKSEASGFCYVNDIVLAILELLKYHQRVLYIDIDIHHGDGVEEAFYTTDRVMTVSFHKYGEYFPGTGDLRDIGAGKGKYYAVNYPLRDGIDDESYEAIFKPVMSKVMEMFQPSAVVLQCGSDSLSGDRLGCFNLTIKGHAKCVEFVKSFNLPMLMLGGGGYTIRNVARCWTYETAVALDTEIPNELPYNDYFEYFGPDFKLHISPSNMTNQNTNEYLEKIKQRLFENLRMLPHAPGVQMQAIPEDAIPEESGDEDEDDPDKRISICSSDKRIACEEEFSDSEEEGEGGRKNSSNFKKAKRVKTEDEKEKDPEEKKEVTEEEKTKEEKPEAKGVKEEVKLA
KDM4E: Lysine-specific demethylase 4E (KDM4E, Homo sapiens, UniProt B2RXH2)
Sequence of UniProt B2RXH2 (whole entry, looked up): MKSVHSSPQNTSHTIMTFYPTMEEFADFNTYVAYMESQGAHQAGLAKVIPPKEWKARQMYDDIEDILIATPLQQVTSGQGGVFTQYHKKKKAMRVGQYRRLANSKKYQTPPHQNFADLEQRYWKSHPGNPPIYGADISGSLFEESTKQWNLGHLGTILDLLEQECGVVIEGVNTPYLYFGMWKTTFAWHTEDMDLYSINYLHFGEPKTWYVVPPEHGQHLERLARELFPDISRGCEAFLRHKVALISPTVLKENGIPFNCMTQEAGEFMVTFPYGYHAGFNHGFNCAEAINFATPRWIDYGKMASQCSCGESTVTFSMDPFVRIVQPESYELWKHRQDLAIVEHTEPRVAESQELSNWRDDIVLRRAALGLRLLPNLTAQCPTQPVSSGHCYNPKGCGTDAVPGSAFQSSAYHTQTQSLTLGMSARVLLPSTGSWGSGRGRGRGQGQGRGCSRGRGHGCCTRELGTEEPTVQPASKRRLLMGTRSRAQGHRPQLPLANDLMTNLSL
EGLN1: Egl nine homolog 1 (EGLN1, Homo sapiens, UniProt Q9GZT9)
Sequence of UniProt Q9BV23 (whole entry, looked up): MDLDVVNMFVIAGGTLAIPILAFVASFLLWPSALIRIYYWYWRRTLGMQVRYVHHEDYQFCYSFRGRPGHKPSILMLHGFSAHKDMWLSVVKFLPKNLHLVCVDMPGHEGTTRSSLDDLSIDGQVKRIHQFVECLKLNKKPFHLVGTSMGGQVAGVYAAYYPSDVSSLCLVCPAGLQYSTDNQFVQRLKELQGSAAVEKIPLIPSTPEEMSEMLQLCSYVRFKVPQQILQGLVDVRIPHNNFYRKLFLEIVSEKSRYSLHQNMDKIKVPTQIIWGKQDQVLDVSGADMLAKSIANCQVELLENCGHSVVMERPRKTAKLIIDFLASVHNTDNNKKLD
Sequence of UniProt Q9GZT9 (whole entry, looked up): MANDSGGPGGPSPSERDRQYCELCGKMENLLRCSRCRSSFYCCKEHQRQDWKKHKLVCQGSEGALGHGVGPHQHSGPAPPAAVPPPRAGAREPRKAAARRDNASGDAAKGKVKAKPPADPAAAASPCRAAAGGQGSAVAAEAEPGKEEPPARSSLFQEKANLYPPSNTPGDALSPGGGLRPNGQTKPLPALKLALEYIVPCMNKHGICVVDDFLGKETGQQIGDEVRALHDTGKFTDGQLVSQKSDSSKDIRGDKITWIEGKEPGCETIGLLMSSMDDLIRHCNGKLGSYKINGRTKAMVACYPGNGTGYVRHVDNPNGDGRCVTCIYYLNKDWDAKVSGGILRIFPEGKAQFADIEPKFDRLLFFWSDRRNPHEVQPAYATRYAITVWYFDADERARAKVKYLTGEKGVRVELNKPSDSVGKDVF
Sequence of UniProt P19111 (whole entry, looked up): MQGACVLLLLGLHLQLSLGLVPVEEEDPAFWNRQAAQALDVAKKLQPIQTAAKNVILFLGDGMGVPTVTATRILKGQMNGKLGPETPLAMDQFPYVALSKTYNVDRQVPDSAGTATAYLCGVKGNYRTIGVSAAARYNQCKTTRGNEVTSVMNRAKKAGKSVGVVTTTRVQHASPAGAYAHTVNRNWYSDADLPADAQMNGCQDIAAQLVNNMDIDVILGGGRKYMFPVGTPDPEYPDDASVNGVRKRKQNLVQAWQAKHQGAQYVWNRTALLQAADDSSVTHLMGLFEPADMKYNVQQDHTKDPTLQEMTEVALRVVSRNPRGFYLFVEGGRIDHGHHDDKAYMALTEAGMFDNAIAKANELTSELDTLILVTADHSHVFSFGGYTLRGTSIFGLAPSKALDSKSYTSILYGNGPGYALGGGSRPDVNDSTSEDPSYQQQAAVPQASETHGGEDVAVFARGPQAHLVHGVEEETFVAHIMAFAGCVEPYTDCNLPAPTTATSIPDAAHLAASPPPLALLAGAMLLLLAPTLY

| Substance | target | test | system | conditions | how to read | IC50 |
| --- | --- | --- | --- | --- | --- | --- |
| CN(C)c1cccc2c(S(=O)(=O)NCCCCCC(=O)NCCC3CCN(CCOc4ccc(C(=O)c5c(-c6ccc(O)cc6)sc6cc(O)ccc56)cc4)CC3)cccc12 | ESR2 | ligand displacement, radioligand | – | – | – | 0.0492 µM |
| O=C1NC2=C(C(=O)N(c3ccc(F)cc3)C2)C(c2ccccc2O)N1 (stereo not shown) | ALPI (Bos taurus, UniProt P19111) | enzyme activity, inhibitor, absorbance | – | pH 9.5 | – | 6.54 µM and 2.5 µM |
| COc1ccc2c(CC(=O)NCCCC[C@H](N)C(=O)N[C@@H](CCC(=O)O)C(=O)N[C@@H](Cc3ccc(CS(=O)(=O)O)cc3)C(=O)N[C@@H](CCC(=O)O)C(=O)N[C@@H](Cc3ccc(CS(=O)(=O)O)cc3)C(=O)N[C@@H](CC(C)C)C(=O)N[C@@H](CC(=O)O)C(=O)N[C@@H](Cc3ccc(CS(=O)(=O)O)cc3)C(=O)N[C@@H](CC(=O)O)C(=O)N[C@@H](Cc3ccccc3)C(=O)N[C@@H](CC(C)C)C(=O)N3CCC[C@H]3C(=O)N[C@@H](CCC(=O)O)C(=O)N[C@H](C(=O)N[C@@H](CCC(=O)O)C(=O)N3CCC[C@H]3C(=O)N[C@@H](CC(C)C)C(=O)O)[C@@H](C)O[C@H]3O[C@H](CO[C@@H]4O[C@H](CO)[C@@H](O[C@@H]5O[C@H](CO)[C@H](O)[C@H](O[C@]6(C(=O)O)C[C@H](O)[C@@H](NC(C)=O)[C@H]([C@H](O)[C@H](O)CO)O6)[C@H]5O)[C@H](O[C@@H]5O[C@@H](C)[C@@H](O)[C@@H](O)[C@@H]5O)[C@H]4NC(C)=O)[C@H](O)[C@H](O[C@@H]4O[C@H](CO)[C@H](O)[C@H](O)[C@H]4O)[C@H]3NC(C)=O)cc(=O)oc2c1 | P-selectin (Mus musculus, UniProt Q01102) | chimera binding to neutrophils, inhibitor, flow cytometry | mouse neutrophils | with: P-selectin Fc chimera 2 µg/mL | – | ~19 µM |
| CN(Cc1cc(C(C)(C)C)cc(Br)c1O)Cc1cc(C(C)(C)C)cc(Br)c1O | BACE1 | enzyme activity, inhibitor, FRET | – | pH 4.5 | – | 645 µM |
| NCCCCCO[C@H]1O[C@H](COS(=O)(=O)O)[C@@H](O[C@@H]2O[C@@H](C(=O)O)[C@@H](O[C@H]3O[C@H](COS(=O)(=O)O)[C@@H](O[C@@H]4O[C@H](C(=O)O)[C@@H](O)[C@H](O)[C@H]4O)[C@H](O)[C@H]3NS(=O)(=O)O)[C@H](O)[C@H]2O)[C@H](O)[C@H]1NS(=O)(=O)O | BACE1 | enzyme activity, inhibitor, FRET | – | pH 4.5 | – | 195 µM |
| O=c1oc2c(O)c(O)cc3c(=O)oc4c(O)c(O)cc1c4c23 | Ribonuclease L (Sus scrofa, UniProt A5H025) | RNase L activity, inhibitor | – | – | – | 0.07308 ± 0.00016 µM |
| C[C@]12C[C@@H]3C[C@](C)(C1)C[C@@](NC(=O)Nc1ccc(C(=O)N4CCC[C@H](C(=O)NCCCCC(=O)NO)C4)cc1F)(C3)C2 | Ephx2 | enzyme activity, inhibitor, fluorescence | – | – | – | 0.0013 µM |
| O=C1C2=C(Nc3ccccc3N2)OC1c1c[nH]c2ccc(COc3ccccc3)cc12 (stereo not shown) | BACE1 | inhibitor, FRET | – | pH 4.5 | – | 1.8 ± 1.1 µM |
| O=C(OC(C(F)(F)F)C(F)(F)F)N1CCc2ccccc2C1 | ABHD6 (Homo sapiens, UniProt Q9BV23) | enzyme activity, inhibitor, fluorescence | – | – | – | 0.084 µM and 0.0842 µM |
| C[C@]12C[C@@H]3C[C@](C)(C1)C[C@@](Nc1c(Nc4ccc(CN5CCC[C@H](C(=O)NCCCCCC(=O)NO)C5)cc4F)c(=O)c1=O)(C3)C2 | Ephx2 | enzyme activity, inhibitor, fluorescence | – | – | – | 1.23 µM |
| Fc1ccccc1 | Neuronal acetylcholine receptor; alpha4/beta2 (Homo sapiens, UniProt P17787+P43681) | ion current, inhibitor, two-electrode voltage clamp | Xenopus oocytes | with: ACh 1 mM | – | 0.007 atm |
| COc1cc(/C=C/C(=O)N2CCC=CC2=O)cc(OC)c1OC | STAT3 (Homo sapiens, UniProt P40763) | protein-protein interaction, inhibitor, SPR | – | – | – | 1.5 µM |
| Cc1ccc(OCC(O)Cn2c(=N)n(C)c3ccccc32)cc1 (stereo not shown) | Kir3.1/Kir3.2 | ion flux | – | – | – | 12.3 µM |
| O=C(Nc1cc(F)c(F)c(F)c1)c1cc(S(=O)(=O)N2CCOCC2)c(Cl)cc1Cl | LPAR5 (Homo sapiens, UniProt Q9H1C0) | Ca2+ mobilization, antagonist | B103 | with: LPA at EC50 | – | > 100 µM |
| O=C(O)c1cccc(-n2c(/C=C/c3ccc([N+](=O)[O-])cc3)nc3ccccc3c2=O)c1 | Grik2 (Rattus norvegicus, UniProt P42260) | ion current, inhibitor, two-electrode voltage clamp | Xenopus oocytes | concanavalin A pretreatment, with: 100 µM glutamate | – | > 300 µM |
| CN1CCN(CCCN2c3ccccc3Sc3ccc(C(F)(F)F)cc32)CC1 | USP8 (Homo sapiens, UniProt P40818) | – | – | – | – | > 114 µM |
| CC1=C(C=O)C(C)(C)CCC1 | Liver carboxylesterase (Sus scrofa, UniProt Q29550) | enzyme activity, inhibitor | – | with preincubation | – | 33 µM |
| C[C@]12C[C@@H]3C[C@](C)(C1)C[C@@](NC(=O)Nc1ccc(C(=O)N4CCC[C@H](C(=O)NCCCC(=O)NO)C4)cc1F)(C3)C2 | Ephx2 | enzyme activity, inhibitor, fluorescence | – | – | – | 0.0015 µM |
| COC(=O)C(Cc1ccc(CCCC(=O)NCCC(=O)Nc2ccc3nc(C)sc3c2)cc1)C(=O)O (stereo not shown) | LDHA (Homo sapiens, UniProt P00338) | inhibitor, NADH fluorescence | – | pyruvate competition, with: 150 µM NADH, 200 µM pyruvate | – | 22.7 ± 3.3 µM |
| CC(C)C[C@H](NC(=O)[C@H](Cc1ccccc1)NC(=O)c1cnccn1)B(O)O | Proteasome subunits (Trypanosoma cruzi, UniProt Q4CU77+Q4D8U7) | chymotrypsin-like activity, inhibitor | – | wild-type proteasome | – | 0.091 ± 0.0075 µM |

| Substance | target | test | system | conditions | how to read | IC50 |
| --- | --- | --- | --- | --- | --- | --- |
| O=C1O[C@H]([C@@H](O)CO)C(O)=C1OP(=O)(O)O | mushroom tyrosinase | inhibitor | – | with: L-DOPA | – | 79 ± 5.86 µM |
| O=C1O[C@H]([C@@H](O)CO)C(O)=C1O | mushroom tyrosinase | enzyme activity, inhibitor | – | 2 min, with: L-DOPA | – | 0.03 mg/mL |
| COc1ccc(OCC(O)Cn2c(=N)n(Cc3ccccc3)c3ccccc32)cc1 (stereo not shown) | Kir3.1/Kir3.2 | ion flux | – | – | – | 1.5 µM |
| Cc1nc2ccc(F)cc2n1Cc1ccc(C(=O)NO)cc1 | HDAC1 | enzyme activity, inhibitor | – | – | – | 2.92 ± 0.01 µM |
| micropeptin 996 | Neutrophil elastase (ELANE, Homo sapiens, UniProt P08246) | inhibitor | – | – | – | 0.84 ± 0.12 µM |
| O=c1cc(N2CCOCC2)oc2c(OCc3cccnc3)cccc12 | PIK3CA (Homo sapiens, UniProt P42336, H855E) | enzyme activity, inhibitor | – | – | – | 4.1 µM |
| CNCCC[C@@]1(c2ccc(F)cc2)OCc2cc(C#N)ccc21 | Slc6a4 (Mus musculus, UniProt Q60857, I172M) | – | – | – | – | 1.6 µM |
| C[C@](N)(Cc1ccc(O)c(O)c1)C(=O)O | KDM4E | enzyme activity, inhibitor, fluorescence | – | – | – | 4 µM |
| CCN(c1ccccc1)S(=O)(=O)C1CC2OC1C(c1ccc(O)cc1)=C2c1ccc(O)cc1 (stereo not shown) | ESR2 | reporter gene, antagonist, luciferase | – | – | – | 0.33 µM |
| O=C(O[C@@H]1Cc2c(O)cc(O)cc2O[C@@H]1c1cc(O)c(O)c(O)c1)c1cc(O)c(O)c(O)c1 | mRNA triphosphatase Cet1 (Trypanosoma brucei brucei, UniProt Q582T2) | enzyme activity, Transcreener ADP fluorescence polarization | – | 3 h, with: 50 µM ATP | – | 0.21 µM |
| O=C(O)c1cccnc1C(=O)O | KDM4E | inhibitor, AlphaScreen | – | 0.1% DMSO, with: 30 nM biotin-H3K9me3 peptide | – | > 100 µM |
| Cn1nc(COCCO)c2ncnnc21 | deoD (Escherichia coli, UniProt P0ABP8) | enzyme activity, inhibitor | – | pH 7.0, 25 °C, 50 mM phosphate, with: 7-methylguanosine 32 µM | – | > 300 µM |
| O=C(O)CCCC(=O)NNC(=O)c1cnc2ccccc2c1 | EGLN1 | inhibitor, AlphaScreen | – | bimodal curve, rough estimate, with: 2 µM 2-oxoglutarate | – | > 300 µM |
| COC(=O)CC[C@@H](C)[C@H]1CC[C@H]2[C@@H]3CC[C@@H]4C[C@H](NC(=O)CCCCCC(=O)O)CC[C@]4(C)[C@H]3CC[C@]12C | human 20S proteasome | chymotrypsin-like activity, inhibitor | – | with: PA28 | – | > 10 µM |
| Nc1nnc(-c2cccc(Cl)c2Cl)c(N)n1 | SCN5A (Homo sapiens, UniProt Q14524) | late sodium current, inhibitor | – | ramp protocol | relative to: ranolazine 300 µM | 12.2 ± 0.5 µM |
| CC(C)C[C@H](NC(=O)[C@H](CC(C)C)NC(=O)[C@@H](Cc1c[nH]c2ccccc12)NC(=O)[C@H](Cc1ccccc1)NC(=O)[C@@H](Cc1c[nH]c2ccccc12)NC(=O)[C@H](CCC(N)=O)NC(=O)[C@H](CCC(N)=O)NC(=O)[C@@H]1CCCN1C(=O)[C@H](CCCCN)NC(=O)[C@@H]1CCCN1C(=O)[C@H](N)CCCN=C(N)N)C(N)=O | NMBR (Homo sapiens, UniProt P28336) | binding, radioligand displacement | Balb 3T3 or NCI-H1299 | – | – | 4.5 to 10 µM |
| O=C(O)c1cc(=O)c(O)co1 | EGLN1 | ODDD peptide hydroxylation, inhibitor, MALDI-TOF MS | – | pH 7.00, 37.0 °C, with: 2-oxoglutarate 10 µM | – | 30 µM |
| [Cl-].[Cl-].[Cl-].[Tb+3] | Collagenase 3 (MMP13, Homo sapiens, UniProt P45452) | enzyme activity, inhibitor | – | pH 7.5, with preincubation | – | 8 µM |
| Cc1cccc(-c2ccc(Cn3cccc(O)c3=S)cc2)c1 | HDAC1 | enzyme activity, inhibitor, SAMDI mass spectrometry | – | – | – | > 10 µM |
| O=C(O)c1cccc(-c2ccc(-c3cn(C(=O)N4CCCCC4Cc4ccccc4)nn3)cc2)c1 (stereo not shown) | Abhd6 (Mus musculus, UniProt Q8R2Y0) | enzyme activity, inhibitor | – | – | – | ~0.001 µM |

A few entries again:
| Substance | target | test | system | conditions | how to read | IC50 |
| --- | --- | --- | --- | --- | --- | --- |
| C[C@]12C[C@@H]3C[C@](C)(C1)C[C@@](NC(=O)Nc1ccc(C(=O)N4CCC[C@H](C(=O)NCCCCC(=O)NO)C4)cc1F)(C3)C2 | Ephx2 | enzyme activity, inhibitor, fluorescence | – | – | – | 0.0013 µM |
| CN1CCN(CCCN2c3ccccc3Sc3ccc(C(F)(F)F)cc32)CC1 | USP8 (Homo sapiens, UniProt P40818) | – | – | – | – | > 114 µM |
| CN(Cc1cc(C(C)(C)C)cc(Br)c1O)Cc1cc(C(C)(C)C)cc(Br)c1O | BACE1 | enzyme activity, inhibitor, FRET | – | pH 4.5 | – | 645 µM |
